Measurements of several laboratories.
Numbered parts are unrelated; each lists some results of a single study. Substitutions count along the parent as printed.

Block 1
Target: CCND2, cyclin fold, Cln2 fusion (human)
Technique: yeast growth competition, sequencing
Sample: yeast
Setting: weak parent motif
Relative to: not given
Direction: higher = stronger binding
Parent: ASZ1 docking peptide (human); GFGFLLFICKLTF; partner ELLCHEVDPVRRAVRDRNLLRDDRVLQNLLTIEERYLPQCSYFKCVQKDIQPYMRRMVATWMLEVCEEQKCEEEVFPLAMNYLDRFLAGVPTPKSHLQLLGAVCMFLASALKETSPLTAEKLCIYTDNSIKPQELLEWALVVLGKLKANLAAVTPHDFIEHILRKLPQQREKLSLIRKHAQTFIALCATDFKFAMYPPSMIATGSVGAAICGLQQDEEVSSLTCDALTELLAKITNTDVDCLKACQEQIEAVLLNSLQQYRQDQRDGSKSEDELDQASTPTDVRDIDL
Variant | normalised enrichment score
GAGFLLFICKLTF [F2A] | -0.445
GFGFLLFIAKLTF [C9A] | -0.178
AFGFLLFICKLTF [G1A] | -0.219
GFGFALFICKLTF [L5A] | -0.38
GFGFLLFICKLAF [T12A] | -0.532
GFGALLFICKLTF [F4A] | -0.252

Block 2
Target: Interferon regulatory factor 3, full length, phosphomimetic (IRF3, Homo sapiens, UniProt Q14653, residues 1-427, S386D/S396D/S398D/S402D/T404D/S405D)
Technique: protein-binding microarray
Form: double-stranded DNA, one strand shown
Sample: in vitro
Tested at: 2540 nM top
Setting: 60-bp whole probe
Added: salmon DNA 0.4 mg/ml
Relative to: random background probes
Direction: higher = stronger binding
All sequences stand within: GCCTAGCAC … GTCTTGATTCGCTTGACGCTGCTG
Residues (chain): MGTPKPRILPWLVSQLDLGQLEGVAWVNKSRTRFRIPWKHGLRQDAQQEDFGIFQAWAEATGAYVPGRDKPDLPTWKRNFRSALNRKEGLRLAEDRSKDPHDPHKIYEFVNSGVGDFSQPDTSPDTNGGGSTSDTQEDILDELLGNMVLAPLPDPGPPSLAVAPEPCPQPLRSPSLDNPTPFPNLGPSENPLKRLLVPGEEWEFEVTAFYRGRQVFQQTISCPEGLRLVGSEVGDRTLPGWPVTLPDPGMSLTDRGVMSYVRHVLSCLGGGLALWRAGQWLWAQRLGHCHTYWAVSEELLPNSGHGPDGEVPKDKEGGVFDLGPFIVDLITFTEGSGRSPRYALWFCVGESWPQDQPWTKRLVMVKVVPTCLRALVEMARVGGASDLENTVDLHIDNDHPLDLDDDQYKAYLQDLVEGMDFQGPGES
Strand | fitted relative affinity [z-score]
GACGGTATCGACACTGGGGTCGTGCTA | 0.608
ACTCATTTTCATTTTGTGTCGTGCTAG | 2.85
GACGGTTTCGGTCTTGGGACGTGCTAG | 8.26
TTGCATCTGGGTATTTTTCTGTGCTAG | -0.212
TCATATTTAAGGCATCTGACTGTGCTA | 0.391
TTAGGGCTGGACTTTCGGTTAGTGCTA | 0.526
GACGATTTCGCGTTTCGAGACGTGCTA | 1.71
TCAGAACTGAGTATCGATTAGTGCTAG | 0.643
TTAGGACTGCTTTTCCTGTAGTGCTAG | -0.018

Block 3
Target: Fragile X messenger ribonucleoprotein 1, C-terminal low-complexity region (Fmr1, Mus musculus, UniProt P35922)
Technique: RNA Bind-n-Seq
Form: RNA
Sample: in vitro
Tested at: 200 nM
Setting: whole 134-nt RNA, ends assumed
Added: 150 mM KCl
Relative to: input library
Direction: higher = stronger binding
All sequences stand within: GGGAGUUCUACAGUCCGACGAUC … UGGAAUUCUCGGGUGUCAAGG
Strand | log2 enrichment
CUCAAGUCCUGUGCUACACAUCGUAUGUACCGAAUCGGGUGGGAAAGGGUGGGAAAGUAUUAUGUUACGCCGUUCGGAUCUGCACUUCCA | 1.1
UCCUCAAGUCCUGUGCUACACAUCGUAUGUACCGAAUCGGAGGAGGGGAGGGAAAGUAUUAUGUUACGCCGUUCGGAUCUGCACUUCCAG | 0.199
CUGUGCUACACAUCGUAUGUACCGAAUCGGGUUUUUUUGGUUUUUUUGGGGUUUUUUUGGGGAAAGUAUUAUGUUACGCCGUUCGGAUCU | -0.312
CCUCAAGUCCUGUGCUACACAUCGUAUGUACCGAAUCGGAAGGAAGGGAAGGGAAAGUAUUAUGUUACGCCGUUCGGAUCUGCACUUCCA | -0.186
CUUGACCCUCAACACCAACCAUGGGCAUAUCCUGGUGGAUUACUCCAAGAACCUGGUGACGGAGGACGUGAUGCGGAUGCUGGUGGACUU | -1.56
UCCUGUGCUACACAUCGUAUGUACCGAAUCGGGCCCCCCGGGCCCCCCGGGGCCCCCCGGAAAGUAUUAUGUUACGCCGUUCGGAUCUGC | -0.46
UCCUGUGCUACACAUCGUAUGUACCGAAUCGGUUUUUUUGGGUUUUUUUGGUUUUUUUGGAAAGUAUUAUGUUACGCCGUUCGGAUCUGC | 0.114
CCUGUGCUACACAUCGUAUGUACCGAAUCGGGUUUUUUUGGUUUUUUUGGUUUUUUUGGGGAAAGUAUUAUGUUACGCCGUUCGGAUCUG | -1.02
CAAGUCCUGUGCUACACAUCGUAUGUACCGAAUCGGUUUGGGGUUUGGGGUUUGGAAAGUAUUAUGUUACGCCGUUCGGAUCUGCACUUC | -0.128
UGGGAGGUGGAUUUUGUUUAUUUAUUUAGCUCAUUUCCAGGGGUGGGAAUUUUUUUUUAAUAUGUGUCAUGAAUAAAGUUGUUUUUGAAA | 0.18
GUCCUGUGCUACACAUCGUAUGUACCGAAUCGGGUUUGGGUUUUUUUGGGUUUUUGGGAAAGUAUUAUGUUACGCCGUUCGGAUCUGCAC | 0.454

Further values, each from its own experiment
Substance | target | test | test system | setting | scale | endpoint | result
PhoQ, residues 284 288 289 292 302 303 SLANKL | PhoP, residues 12 14 15 18 19 NHFRA (Escherichia coli, UniProt P23836) | Sort-seq, refers to: YFP reporter | E. coli | PhoQ-PhoP variant library, added: 10 µM Mg2+ | relative to: high Mg2+ state, higher = stronger signaling | fold induction | 3.04

A few entries again (block 2):
Strand | fitted relative affinity [z-score]
ACTCATTTTCATTTTGTGTCGTGCTAG | 2.85
GACGGTTTCGGTCTTGGGACGTGCTAG | 8.26
TTGCATCTGGGTATTTTTCTGTGCTAG | -0.212
